# Measured values collected from several papers.
# Parts stem from different laboratories: compare values within a part only. Positions count from the first letter of the parent shown.

# Study 1 — technique: DHFR PCA, deep sequencing; medium: yeast; with: (+)-ABA 0.032 µM; relative to: wild-type fitted maximum; reading: higher = stronger binding
# Target: ABI1, truncated, D143A, DHFR fusion (Arabidopsis thaliana)
# Setting: methotrexate growth selection, single substitutions
# Starting sequence: PYL1, truncated, DHFR fusion (Arabidopsis thaliana); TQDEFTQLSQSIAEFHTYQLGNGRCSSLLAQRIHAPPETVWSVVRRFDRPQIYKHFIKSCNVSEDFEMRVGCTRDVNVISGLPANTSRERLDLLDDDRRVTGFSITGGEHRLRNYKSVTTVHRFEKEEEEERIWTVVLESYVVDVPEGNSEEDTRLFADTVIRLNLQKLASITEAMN
Change,relative binding score [%]
R111Y,6.79
C72V,31.1
G71K,0.249
Q51P,-8.26
A170H,-10.5
T6W,21.5
G148Y,-4.99
D75Y,23.5
L166I,5.64
V136N,0.711
E4G,6.8
F124R,-0.247
D159C,-2.32
N85V,63.5

# Study 2 — technique: RNAcompete; form: RNA; medium: in vitro; tested at: 20 nM; setting: 7-mer, probes averaged, single round; relative to: mean of 7-mers; reading: higher = stronger binding
# Target: PABPC1L2, full length, GST fusion (mouse, UniProt A0ABA7IW68)
# Residues (chain): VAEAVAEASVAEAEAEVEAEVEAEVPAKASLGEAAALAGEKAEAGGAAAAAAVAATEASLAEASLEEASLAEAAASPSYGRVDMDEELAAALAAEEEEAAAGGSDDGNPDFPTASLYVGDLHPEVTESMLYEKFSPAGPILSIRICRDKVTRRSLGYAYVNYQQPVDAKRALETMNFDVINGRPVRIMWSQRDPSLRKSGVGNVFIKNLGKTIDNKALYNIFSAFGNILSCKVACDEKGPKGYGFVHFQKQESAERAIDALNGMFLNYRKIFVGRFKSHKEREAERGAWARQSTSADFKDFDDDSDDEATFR
Sequence,7-mer Z-score
UGCGCCA,-0.122
GUUCACG,-0.271
GUAGAAA,1.94
ACGUCCG,-0.291
CGUAACG,-0.17
CUAUUUU,-0.351
CUCUAAC,-0.195
AUUCAAG,0.046
UAAUUUG,-0.151
ACUCCUU,-0.289
AUGGGCA,0.291
GCCAGCA,-0.0428
ACUACCU,-0.204
GGCGACU,0.0805
AGGGAUA,0.36
ACUCUCC,-0.387
AUAGAAG,0.314
GCUGGCG,-0.222
CAUGCAG,-0.00652

# Study 3 — target: CCNB2, cyclin fold, Cln2 fusion (human); technique: yeast growth competition, sequencing; medium: yeast; setting: strong parent motif; relative to: not given; reading: higher = stronger binding
# Starting sequence: PKMYT1 docking peptide (human); SFEPRNLLSLFED
Change,normalised enrichment score
R5M,1.59
L10H,0.596
R5C,1.48
S1I,0.886
P4H,-0.696
E3Q,1.58
S9K,0.616
D13W,-0.102
E3S,0.53
E12Q,0.305
P4Y,-1.06
L8Q,0.404
L10Q,1.13
L10Y,0.726
F2N,-0.186
E3N,0.345
L10S,0.716
N6H,-0.4
L7R,-0.79
S9L,0.778
S9Y,1.24
D13A,1.2
E3A,1.54
L7E,-1.01
D13N,1.13

# Study 4 — technique: universal PBM; form: double-stranded DNA, one strand shown; medium: in vitro; tested at: 600 nM; reading: higher = stronger binding
# Target: Sal-like protein 4, full length isoform A (SALL4, Homo sapiens, UniProt Q9UJQ4, residues 1-1053)
# Chain of UniProt Q9UJQ4 (whole entry, looked up): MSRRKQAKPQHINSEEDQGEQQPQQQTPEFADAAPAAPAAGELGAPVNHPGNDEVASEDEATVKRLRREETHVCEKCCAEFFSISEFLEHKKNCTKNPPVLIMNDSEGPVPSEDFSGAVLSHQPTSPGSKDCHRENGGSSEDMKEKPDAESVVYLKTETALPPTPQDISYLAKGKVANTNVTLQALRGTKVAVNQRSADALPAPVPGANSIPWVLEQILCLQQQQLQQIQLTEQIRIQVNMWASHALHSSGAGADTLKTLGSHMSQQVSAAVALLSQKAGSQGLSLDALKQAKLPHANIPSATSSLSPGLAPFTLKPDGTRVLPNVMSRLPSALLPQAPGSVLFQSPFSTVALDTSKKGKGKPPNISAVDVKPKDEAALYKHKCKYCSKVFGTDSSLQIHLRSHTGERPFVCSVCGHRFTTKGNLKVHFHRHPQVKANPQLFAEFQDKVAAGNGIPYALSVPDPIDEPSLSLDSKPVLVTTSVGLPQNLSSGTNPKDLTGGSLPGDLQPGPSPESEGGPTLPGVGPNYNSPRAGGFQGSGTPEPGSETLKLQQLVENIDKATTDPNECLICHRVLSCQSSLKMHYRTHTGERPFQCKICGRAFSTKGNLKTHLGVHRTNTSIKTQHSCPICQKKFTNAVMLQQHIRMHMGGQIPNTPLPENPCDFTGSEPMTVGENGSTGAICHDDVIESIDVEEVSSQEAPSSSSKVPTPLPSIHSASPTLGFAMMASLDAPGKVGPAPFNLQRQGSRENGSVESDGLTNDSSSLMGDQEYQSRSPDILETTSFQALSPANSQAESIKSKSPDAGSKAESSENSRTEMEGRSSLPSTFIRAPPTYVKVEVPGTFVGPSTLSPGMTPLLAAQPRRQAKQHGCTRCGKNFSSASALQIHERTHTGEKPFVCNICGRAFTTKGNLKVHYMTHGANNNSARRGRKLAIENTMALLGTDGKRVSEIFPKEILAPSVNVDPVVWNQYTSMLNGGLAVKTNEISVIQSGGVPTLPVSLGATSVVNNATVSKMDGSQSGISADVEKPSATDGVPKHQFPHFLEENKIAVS
# Setting: 8-mer, flanks averaged, mean of replicates
Sequence,E-score
GACCCACA,0.00554
ATCAGTGG,-0.052
AATGCGAC,0.0343
CGCACCGA,-0.28
ACGTGGCG,-0.208
ACATCAGA,0.123
ATACAGAA,0.176
GAGAGCGA,-0.219
ATCACACC,-0.081
ACCGAGTA,-0.0999
GCATCCAA,-0.213
AGCAGATG,-0.18
CGTTAAAG,0.00101
CGTCAAAA,0.187
ATCCCTCA,-0.0978
ACACCCGG,-0.295
CCGACTTA,0.0932
ACTCTTCC,-0.00655
TAACATCA,0.257
AGATACGC,-0.0567
GTTCGGAA,-0.0806
AGGGCCGA,-0.176
CTGCGGGC,-0.35

# Study 5 — technique: RNA Bind-n-Seq; form: RNA; medium: in vitro; tested at: 365 nM; relative to: no-protein control; reading: higher = stronger binding
# Target: RNA binding protein fox-1 homolog 2, RRM domain, GST-SBP tag (RBFOX2, Homo sapiens, UniProt O43251-10, residues 100-194)
# Setting: natural RNA segment, single round, ends assumed
# All sequences stand within: GGGAGUUCUACAGUCCGACGAUC … UGGAAUUCUCGGGUGCCAA
# Residues (chain): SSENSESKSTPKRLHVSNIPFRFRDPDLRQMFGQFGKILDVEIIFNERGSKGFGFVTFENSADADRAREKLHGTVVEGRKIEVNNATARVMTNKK
Sequence,RBNS enrichment (R)
GAGCCUGUAUAUAAAUUAAAAUAGUCAAGACAACACUGACCUUGCACUUGUACAUAACUAUACAGUAGUGUCCAGAAUGUUCAGACAUUCGGAGUGUACAUAAAACAGAA,0.52
UGGGGUCACUGUGCAAGCUUCCUUAUGGUUUGAACCUCUUGUCAUGUGAUAAAAGUCUCUGUCUCGAGGUUGCAGGCUUUUCAUUUUUAAUCAGUCUUGUCACAGGUGCG,1.35
AGGGUCACAUACAUCCAACUUCACCACUUGGCUGCUUGAGAUUGGUUCUGCUCUUUUCUUCAUUUCUUUCCAGAACAACUCUUUCCCACCCCAACACCACUGCCACCACC,0.7
UCUCACCUUUUUAAAAAUUUCCAUACAACUUGAGAAUUAGGUAAGUUCCUUUGUAUACAAAUUUCAGCAGCUAGGAUAUGUCACCCUUCAGUACUACAAAGUACAGAAAU,1.24
CAUCUUCAUUCAUUCACUGAGUAUUUAUUGAACGCCUCCUAGGUGUCGGACAUGUACUGGGUGCUGGGAAUGCCACUGGAUCAUGAAGUUCACCUCUGGAGGAGACAGGA,0.289
CCUUUCUUUAAGCUGUGUACAGUGAAAAUUGUCUUUACUGUAUUUUUGUUCUCUGGUAAUGUAAUAAGCAUGAUGGUGCCUUCUAUUAAUACAUCAUUCCAGUCUUGCUG,5.06
UCAUCAUGGAUACUCAAUUUGUUUUUUCUUAUAGAGAAAAUGAGUAUAUAAGACAAUAUACAAGAAGAAAUAUCAGUGAGUUUUAAAUCAGAACAAGUUACCUGUCACAU,0.404
UGGCAGAGAGGUCCUGUGAGUCAUUUGAUGGACGAGUGCCUUUGACUGUGCUAGAUCUUCACUUCGGUGGCGAGUUAUAUCCUACAGCCCUGACACAUCAGGCAAUGAAU,0.301
GUUUUUUUUUCAUUUUAAACCAAAUGCAUGUAUAAUCAUGUUGGAAUAUGUUAAGAUCUAUGGAUAUUCUGUAGCAAGAGAAAAUAUCUUUGCCUUAACUCCACUGCUGU,2.53
GAAAACCAGACUCUCCUCCCAAACUAGCCUCAGGAGCUUGGCGAACCCGCUCGCUCCUAAAGAGAAAGACCCAGGACCCUCCCCCAUCACCCCCAAGAGAGGUUCGCCAU,0.438
UAUGCUAUGUUAGAAGUCCAGGCAGAGACAAUAAAACAUUCCUGUGAAAGGCACUUUUCAUUCCACUUUAACUUGAUUUUUUAAAUUCCCUUAUUGUCCCUUCCAAAAAA,1.51
ACACAAGUCAUCCUGCCUGGCUGCAGUUAGCUGUCAUUGUCAUUGAAAAUCUUAGUGUCUCCUGGUGGAGGGGAAGGACCGGCUGCCUCACCCCACUCCCUGAUCUCACA,0.238

# Study 6 — target: CREBRF, bZIP domain (human); technique: DHFR protein complementation; medium: yeast; relative to: wild-type JUN-FOS pair; reading: higher = stronger binding
# Setting: single substitutions, most at no-binding floor
# Starting sequence: JUN, bZIP domain (human); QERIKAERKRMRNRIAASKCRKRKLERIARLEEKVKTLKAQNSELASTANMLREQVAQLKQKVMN; partner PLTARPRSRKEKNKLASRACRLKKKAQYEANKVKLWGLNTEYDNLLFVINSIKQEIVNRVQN
Change,binding fitness
S43H,-1.53 natural log
Q55S,-1.39 natural log
R30V,-1.33 natural log
E33P,-1.54 natural log
Q41I,-1.56 natural log
V56S,-1.52 natural log
L52T,-1.52 natural log
A57P,-1.52 natural log
S43F,-1.46 natural log
I28Y,-0.92 natural log
M51V,-1.52 natural log
S47K,-1.41 natural log
Q41W,-1.49 natural log
T37F,-1.56 natural log
L45M,-1.42 natural log
S43P,-1.5 natural log
T48K,-1.4 natural log
E33W,-1.2 natural log
Q55W,-1.48 natural log
E54V,-1.38 natural log
E33N,-1.54 natural log
T37Y,-1.66 natural log
A49D,-1.49 natural log

# For quick reference, copied from above (study 3):
Change,normalised enrichment score
P4H,-0.696
D13N,1.13
L7E,-1.01
S1I,0.886
E3N,0.345
L7R,-0.79
L10S,0.716
L10Q,1.13
F2N,-0.186
S9Y,1.24
E12Q,0.305
D13A,1.2
D13W,-0.102
R5C,1.48
